Published values pooled from the literature.
Protocols differ between the studies behind these lines. ± marks the error that the study gave.

C[C@H]1COCCN1c1nc(NCc2cccnc2C(F)(F)F)c2cccnc2n1 — Cmax (BALB/c mice; oral, 10 mg/kg): 16.2 µg/mL
CO[C@H]1C[C@@H]2CC[C@@H](C)[C@@](O)(O2)C(=O)C(=O)N2CCCC[C@H]2C(=O)O[C@H]([C@H](C)C[C@@H]2CC[C@@H](OC(=O)NCCOCCOCCOCCOCCOCCOCCOCCOCCC(=O)N3CCc4cc(Cn5nc(-c6ccc7oc(N)nc7c6)c6c(N)ncnc65)ccc4C3)[C@H](OC)C2)C[C@@H](O)[C@H](C)/C=C(\C)[C@@H](O)[C@@H](OC)C(=O)[C@H](C)C[C@H](C)/C=C/C=C/C=C/1C — AE leading to dose reduction (patients with advanced solid tumours; intravenous, 6 mg weekly, grade 3 or higher): 0%
CC[C@H](C)[C@H](NC(=O)[C@H](Cc1ccccc1)NC(=O)[C@H](CCC(=O)O)NC(=O)[C@H](CCCNC(=N)N)NC(=O)[C@H](C)NC(=O)[C@H](C)NC(=O)[C@H](CCC(N)=O)NC(=O)[C@H](CCC(=O)O)NC(=O)[C@H](CCC(=O)O)NC(=O)[C@H](CC(C)C)NC(=O)[C@H](Cc1ccc(O)cc1)NC(=O)[C@H](CO)NC(=O)[C@H](CO)NC(=O)[C@@H](NC(=O)[C@H](CC(=O)O)NC(=O)[C@H](CO)NC(=O)[C@@H](NC(=O)[C@H](Cc1ccccc1)NC(=O)[C@@H](NC(=O)CNC(=O)[C@H](CCC(=O)O)NC(=O)[C@H](C)NC(=O)CCc1cnc[nH]1)[C@@H](C)O)[C@@H](C)O)C(C)C)C(=O)N[C@@H](C)C(=O)N[C@@H](Cc1c[nH]c2ccccc12)C(=O)N[C@@H](CC(C)C)C(=O)N[C@H](C(=O)N[C@@H](CCCNC(=N)N)C(=O)NCC(=O)N[C@@H](CCCNC(=N)N)C(=O)N[C@@H](CCCCNC(=O)COCCOCCNC(=O)COCCOCCNC(=O)CC[C@H](NC(=O)CCCCCCCCCCCCCCCCC(=O)O)C(=O)O)C(=O)NCC(=O)NCC(=O)N[C@@H](CO)C(=O)N[C@@H](CCCCNC(=O)[C@H](CCCCNC(=O)[C@H](CCCCNc1c(NCCCCCN(O)C(=O)CCC(=O)NCCCCCN(O)C(=O)CCC(=O)NCCCCCN(O)C(C)=O)c(=O)c1=O)Nc1c(NCCCCCN(O)C(=O)CCC(=O)NCCCCCN(O)C(=O)CCC(=O)NCCCCCN(O)C(C)=O)c(=O)c1=O)NC(=O)[C@H](CCCCNc1c(NCCCCCN(O)C(=O)CCC(=O)NCCCCCN(O)C(=O)CCC(=O)NCCCCCN(O)C(C)=O)c(=O)c1=O)Nc1c(NCCCCCN(O)C(=O)CCC(=O)NCCCCCN(O)C(=O)CCC(=O)NCCCCCN(O)C(C)=O)c(=O)c1=O)C(=O)O)C(C)C [zirconium-89 labelled] — tissue uptake (ex vivo gamma counting; male Sprague-Dawley rats, colon; intravenous, 1 nmol, 24 h): 0.452 %ID/g
C[C@@H]1OC(=O)NN=C1c1ccc(-c2ccc(F)cc2)c(C(F)(F)F)c1 — patients with adverse event (phase I trial, refers to: AST increased all grades; human patients; 5 mg loading then 0.25 mg daily): 0%
Cc1cccc(Cn2nc(C3CC3)c3c(NC(=O)c4cnc5cc(OCCN6CCN(C)CC6)ccn45)cccc32)n1 — all-cause adverse events (CTCAE v4.03, refers to: all adverse events; pancreatic ductal adenocarcinoma patients; oral, dose not given, together with: pembrolizumab IV every 3 weeks): 100%
[O-][S+]1CCc2nc(N3CCC(c4ncc(Cl)cn4)CC3)nc(NC3(CO)CCC3)c21 (centres unmarked) — subjects with adverse events (phase I trial, refers to: infections and infestations; idiopathic pulmonary fibrosis patients; 18 mg twice daily): 50%
COc1cc2c(Oc3ccc4[nH]c(C)cc4c3F)ccnc2cc1OCC1(N)CC1 — grade 3 Vomiting (paediatric recurrent refractory sarcoma; 8 mg/kg): 0%
CC(C)[C@H](C(=O)O[C@H](C#N)c1cccc(Oc2ccccc2)c1)c1ccc(Cl)cc1 — enzyme contribution to clearance (refers to: CYP3A4; human, age 1 year): 1.74%
CN(C(=O)n1cnc(-c2ccc[n+]([O-])c2)c1)C1CCCCC1 — concentration (culture medium without cells; 100 nM, 3 h): 0.1035 ± 0.001 µM
O[C@H]1CCCN[C@@H]1CCCn1cnc2c(Cl)c(Cl)ccc21 — Vd/F at steady state (healthy humans, plasma; oral, 150 mg, together with: pirfenidone 600 mg): 921 L
CCCCCOc1ccc(-c2ccc(-c3ccc(C(=O)N[C@H]4C[C@@H](O)[C@@H](OCC[N+](C)(C)C)NC(=O)[C@@H]5[C@@H](O)[C@@H](C)CN5C(=O)[C@H]([C@@H](C)O)NC(=O)[C@H]([C@H](O)[C@@H](O)c5ccc(O)cc5)NC(=O)[C@@H]5C[C@@H](O)CN5C(=O)[C@H]([C@@H](C)O)NC4=O)cc3)cc2)cc1 — alkaline phosphatase (adult ICU patients, mITT, serum; dose not given, day 14): 168 U/L
CC(C)(O)c1cc(Nc2cc(Oc3cn(C4CC4)nc3C3CCOCC3)ccn2)ccn1 — treatment-emergent adverse events (Cough; advanced cancer patients, grade 4 glioma expansion; oral, 50 mg twice daily, all causality any grade): 8%
CCN1[C@@H](C(=O)NC23CCC(C(=O)O)(CC2)CC3)[C@H](c2cccc(Cl)c2F)[C@]2(C(=O)Nc3cc(Cl)ccc32)C12CCCCC2 — Hypercholesterolemia incidence (patients with advanced solid tumours; oral, 200 mg): 0%
Nc1nc2cc(-c3ccc4ncc(C(=O)N5CCOCC5)n4c3)ccc2o1 — grade ≥3 hyperglycaemia (advanced solid tumour patients; dose not given, drug-related, all schedules; reference: patients): 7%

Some of these lines once more:
CC(C)[C@H](C(=O)O[C@H](C#N)c1cccc(Oc2ccccc2)c1)c1ccc(Cl)cc1 — enzyme contribution to clearance (refers to: CYP3A4; human, age 1 year): 1.74%
CN(C(=O)n1cnc(-c2ccc[n+]([O-])c2)c1)C1CCCCC1 — concentration (culture medium without cells; 100 nM, 3 h): 0.1035 ± 0.001 µM
